# Published values gathered from unrelated publications.
# Values joined by “and” are separate records of one study, mostly repeats; a detail may differ.
# CDK4 with cyclin D1: Cyclin-dependent kinase 4, with cyclin D1 (CDK4, Homo sapiens, UniProt P11802)
# CDK4: Cyclin-dependent kinase 4 (CDK4, Homo sapiens, UniProt P11802)
# CDK4 with cyclin D3: Cyclin-dependent kinase 4, with cyclin D3 (CDK4, Homo sapiens, UniProt P11802)
# CDK4 with cyclin D: Cyclin-dependent kinase 4, with cyclin D (CDK4, Homo sapiens, UniProt P11802)
SMILES,target,test,test system,setting,scale,quantity,value
COCC12C(=O)NC3C4(C(OC)CC1O)C1CC5(O)C(OC)C(O)C(OC(C)=O)(C1C5OC(=O)c1ccccc1)C3(O)C(OC)C24 (centres unmarked),CDK4 with cyclin D1,"kinase activity, inhibitor, ProQinase kinase profiling",,25 µM,relative to: control,remaining activity,94% and 98%
COc1cc(Nc2nc(C)cc(-c3cnn4nc(OC)ccc34)n2)cc(C(F)(F)F)c1,CDK4,inhibitor,,1 µM,relative to: control,remaining activity,70%
NC(=O)[C@@H](O)C[C@H]1CCc2sc3ncnc(O[C@H]4CC[C@H](N5CCOCC5)CC4)c3c21,CDK4 with cyclin D1,"enzyme activity, inhibitor",,10 µM,,inhibition,10%
Nc1ncc(-c2cc(-c3cnn(CC(F)(F)F)c3)ncc2F)nc1C(=O)NC1CNCC(F)C1 (centres unmarked),CDK4 with cyclin D3,enzyme activity,,1 µM,relative to: DMSO control,remaining activity,112%
CS(=O)(=O)Nc1cccc(-c2csc3cnc(Nc4ccc(N5CCN(CCCCCOc6cccc7c6C(=O)N(C6CCC(=O)NC6=O)C7=O)CC5)cc4)nc23)c1 (centres unmarked),CDK4,target engagement in cells,MOLT-4,1 µM,,inhibition,> 50%
COc1ccc(C(=O)/C=C/c2ccccc2-c2c[nH]c3ccc(C#N)cc23)c(O)c1,CDK4 with cyclin D3,"enzyme activity, inhibitor",,20 µM,,inhibition,-1%
NC(=O)C[C@H]1CCc2sc3ncnc(O[C@H]4CC[C@H](N5CCOCC5)CC4)c3c21,CDK4 with cyclin D3,"enzyme activity, inhibitor",,10 µM,,inhibition,6%
CN1C[C@@H](c2c[nH]c3cc(Br)ccc23)NC[C@@H]1c1c[nH]c2cc(Br)ccc12,CDK4 with cyclin D1,"enzyme activity, inhibitor",,10 µM,,remaining activity,99%
C=CC(=O)N1Cc2nc(-c3cc(-c4cc(Cl)cnc4Cl)c(F)cc3F)n(-c3ccncn3)c2C1,CDK4 with cyclin D1,"cell-free assay, inhibitor",,1 µM,,inhibition,0%
C=CC(=O)Nc1cccc(-c2cnc3[nH]cc(C(=O)NC(C)(C)C)c3n2)c1,CDK4 with cyclin D,"enzyme activity, inhibitor",,0.1 µM,,inhibition,1%
CCn1cc(C(=O)O)c(=O)c2c(N)c(F)c(NC3CCCCC3)cc21,CDK4 with cyclin D3,kinase activity,,"0.1 µM, added: ATP at Km",,inhibition,1.7%
Cc1cccc(O[C@H]2CCC[C@@H](C(C)CNCc3ccncc3)C2)c1 (relative stereo),CDK4 with cyclin D,kinome profiling,,1 µM,,inhibition,2%
CN1CC[C@@H](COc2cnc(C#N)cc2-c2ccn3nc(NC(=O)C4CC4)cc3c2)C1,CDK4 with cyclin D3,"enzyme activity, inhibitor",,1 µM,,inhibition,-2%
C=CC(=O)Nc1cc(-c2nn(C3CCN(CCNC(=O)[C@H](C)CCC45CC6CC(CC(C6)C4)C5)CC3)c3ncnc(N)c23)ccc1Oc1ccccc1,CDK4,"inhibitor, KiNativ profiling",biochemical,2 µM,,inhibition,17.4%

# A few entries again:
SMILES,target,test,test system,setting,scale,quantity,value
Cc1cccc(O[C@H]2CCC[C@@H](C(C)CNCc3ccncc3)C2)c1 (relative stereo),CDK4 with cyclin D,kinome profiling,,1 µM,,inhibition,2%
COc1ccc(C(=O)/C=C/c2ccccc2-c2c[nH]c3ccc(C#N)cc23)c(O)c1,CDK4 with cyclin D3,"enzyme activity, inhibitor",,20 µM,,inhibition,-1%
